Measured values pooled from the literature.
Compare with care: the assays were run in different laboratories. Numbers after ± are the reported error.
Glutamate receptor ionotropic, kainate 1 del402-416: Glutamate receptor ionotropic, kainate 1 (Rattus norvegicus, UniProt P22756, del402-416)
Sequence of UniProt P22756 (whole entry, unmodified, looked up): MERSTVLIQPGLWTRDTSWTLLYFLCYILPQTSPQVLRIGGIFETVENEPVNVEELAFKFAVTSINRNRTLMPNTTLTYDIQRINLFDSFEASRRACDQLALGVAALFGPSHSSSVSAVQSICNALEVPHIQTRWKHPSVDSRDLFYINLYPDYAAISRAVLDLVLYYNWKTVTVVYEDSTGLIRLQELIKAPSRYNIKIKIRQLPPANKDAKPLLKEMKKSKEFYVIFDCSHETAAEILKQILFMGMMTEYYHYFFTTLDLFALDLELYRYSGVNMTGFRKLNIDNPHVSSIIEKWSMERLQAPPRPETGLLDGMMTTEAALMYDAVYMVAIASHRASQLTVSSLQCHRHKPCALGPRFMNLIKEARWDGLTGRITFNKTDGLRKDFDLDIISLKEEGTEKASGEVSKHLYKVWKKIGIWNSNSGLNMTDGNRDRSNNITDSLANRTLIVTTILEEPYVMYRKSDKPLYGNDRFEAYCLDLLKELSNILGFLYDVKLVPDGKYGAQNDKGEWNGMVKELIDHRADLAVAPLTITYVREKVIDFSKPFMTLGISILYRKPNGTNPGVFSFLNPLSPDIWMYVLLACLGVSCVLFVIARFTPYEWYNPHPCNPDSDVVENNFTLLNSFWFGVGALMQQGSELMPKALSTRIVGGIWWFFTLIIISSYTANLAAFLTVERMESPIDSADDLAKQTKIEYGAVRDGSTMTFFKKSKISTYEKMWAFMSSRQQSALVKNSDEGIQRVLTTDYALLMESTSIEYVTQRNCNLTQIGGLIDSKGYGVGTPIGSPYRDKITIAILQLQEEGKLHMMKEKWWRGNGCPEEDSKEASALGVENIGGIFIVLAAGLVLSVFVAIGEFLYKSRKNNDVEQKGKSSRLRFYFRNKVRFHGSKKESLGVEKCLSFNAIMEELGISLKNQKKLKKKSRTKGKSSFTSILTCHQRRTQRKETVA
Tumor necrosis factor receptor superfamily member 9/Nectin-4: Tumor necrosis factor receptor superfamily member 9/Nectin-4 (Homo sapiens, UniProt Q07011+Q96NY8)
Sequence of UniProt Q96NY8 (whole entry, looked up): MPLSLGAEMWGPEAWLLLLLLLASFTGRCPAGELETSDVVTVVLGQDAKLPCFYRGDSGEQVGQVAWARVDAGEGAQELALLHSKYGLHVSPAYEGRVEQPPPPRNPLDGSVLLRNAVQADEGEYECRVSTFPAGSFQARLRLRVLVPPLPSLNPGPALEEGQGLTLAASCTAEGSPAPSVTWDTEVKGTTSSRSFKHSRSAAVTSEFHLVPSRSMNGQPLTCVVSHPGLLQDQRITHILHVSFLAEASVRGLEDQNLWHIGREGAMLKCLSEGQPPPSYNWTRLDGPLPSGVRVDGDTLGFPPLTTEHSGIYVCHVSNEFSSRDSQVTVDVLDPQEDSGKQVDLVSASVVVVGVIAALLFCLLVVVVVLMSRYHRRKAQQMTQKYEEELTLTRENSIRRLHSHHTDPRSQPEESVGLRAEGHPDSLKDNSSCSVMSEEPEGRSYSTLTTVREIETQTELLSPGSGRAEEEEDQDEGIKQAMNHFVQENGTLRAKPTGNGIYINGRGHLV
Sequence of UniProt Q07011 (whole entry, looked up): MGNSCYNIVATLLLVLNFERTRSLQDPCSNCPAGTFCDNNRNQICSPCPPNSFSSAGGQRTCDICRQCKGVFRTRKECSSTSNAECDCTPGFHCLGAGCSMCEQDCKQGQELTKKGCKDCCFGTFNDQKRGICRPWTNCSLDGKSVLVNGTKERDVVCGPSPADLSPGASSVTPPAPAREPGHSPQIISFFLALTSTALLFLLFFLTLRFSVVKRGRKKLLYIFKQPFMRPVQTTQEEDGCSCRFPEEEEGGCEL
CA9: Carbonic anhydrase 9 (CA9, Homo sapiens, UniProt Q16790)
Sequence of UniProt P32300 (whole entry, looked up): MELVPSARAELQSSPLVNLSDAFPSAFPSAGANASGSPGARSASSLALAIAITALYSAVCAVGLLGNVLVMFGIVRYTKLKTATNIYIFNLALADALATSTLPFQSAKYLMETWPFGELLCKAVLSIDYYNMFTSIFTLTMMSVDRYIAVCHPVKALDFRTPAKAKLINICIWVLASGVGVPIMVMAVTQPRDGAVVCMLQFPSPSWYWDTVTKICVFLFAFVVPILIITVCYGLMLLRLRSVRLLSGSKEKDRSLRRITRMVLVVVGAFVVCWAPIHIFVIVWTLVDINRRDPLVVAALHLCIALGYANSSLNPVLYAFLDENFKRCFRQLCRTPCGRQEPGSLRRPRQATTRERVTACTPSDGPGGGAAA
Sequence of UniProt P00512 (whole entry, looked up): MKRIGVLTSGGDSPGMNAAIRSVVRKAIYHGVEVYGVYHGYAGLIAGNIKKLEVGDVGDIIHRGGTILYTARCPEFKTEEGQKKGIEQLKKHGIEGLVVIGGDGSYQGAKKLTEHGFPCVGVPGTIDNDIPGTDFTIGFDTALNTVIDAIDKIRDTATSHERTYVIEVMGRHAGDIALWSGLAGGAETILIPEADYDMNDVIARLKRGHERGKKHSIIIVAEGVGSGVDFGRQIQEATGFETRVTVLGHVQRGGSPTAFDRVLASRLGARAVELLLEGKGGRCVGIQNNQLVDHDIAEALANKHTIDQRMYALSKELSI

SMILES = COCC1OC2CC(CC(N)C(=O)O)(C(=O)O)OC2C(O)C1O (stereo not shown); tested on = Glutamate receptor ionotropic, kainate 1 del402-416; test = [3H]kainate displacement; test system = HEK-293T/17 membranes; endpoint = Ki; value = 10 nM
SMILES = C[C@@H](O)[C@@H](CO)NC(=O)[C@@H](CCCNC(=N)N)NC(=O)[C@@H]1CCCN1C(=O)[C@@H]1CSSC[C@H](NC(=O)[C@H](Cc2ccccc2)NC(=O)CN2CCN(CC(=O)O)CCN(CC(=O)O)CCN(CC(=O)O)CC2)C(=O)N[C@@H](Cc2ccc(O)cc2)C(=O)N[C@@H](Cc2ccccc2)C(=O)N[C@@H](CCC(N)=O)C(=O)N[C@@H](CC(N)=O)C(=O)N1 [gallium-68 labelled]; test system = healthy Wistar rat, brain; setting = intravenous, 8 MBq, 120 min, individual animals; endpoint = tissue uptake; value = 0.01 %ID/g
SMILES = Cc1cc(O)cc(C)c1C[C@H](C)C(=O)N[C@@H]1CCCCC[C@@H](C(N)=O)NC(=O)[C@H](Cc2ccccc2)NC(=O)[C@H](Cc2ccccc2)NC1=O; tested on = Oprd1 (Mus musculus, UniProt P32300); test = delta opioid receptor signalling, antagonist; test system = mouse vas deferens; setting = with: DPDPE; endpoint = Kb; value = 147 ± 36 nM
SMILES = CC[C@H](C)[C@@H]1NC(=O)[C@@H]2CCCN2C(=O)[C@H](CC(C)C)NC(=O)[C@H](CC(C)C)NC(=O)CNC(=O)[C@@H](NC(=O)[C@@H](NC(=O)[C@H](CC(=O)O)NC(=O)CNC(=O)[C@@H](NC(=O)[C@H](C)NC(=O)CNC(=O)[C@H](CCCCN)NC(=O)[C@H](CC(C)C)NC(=O)[C@H](CC(C)C)NC(=O)[C@H](CCCCN)NC(=O)CNC(=O)[C@@H](NC(=O)[C@@H](N)CC(C)C)C(C)C)C(C)C)C(C)C)CSSC[C@@H](C(=O)O)NC1=O; test = RNA-seq, refers to: Iglc1; test system = mouse, traumatic brain injury model, frontal cortex and hippocampus; setting = dose not given; how to read = reference: TBI alone; endpoint = log2 fold change; value = -3.26
SMILES = C=C(OP(=O)(O)O)C(=O)O; tested on = pfkA (Geobacillus stearothermophilus, UniProt P00512); endpoint = Kd; value = 60000 ± 4000 nM
SMILES = CCCC[C@@H]1NC(=O)[C@H](Cc2ccc(O)cc2)NC(=O)[C@@H]2CCCN2C(=O)[C@H](CC(=O)O)NC(=O)[C@H](C)NC(=O)[C@H](Cc2ccccc2)NC(=O)[C@@H]2CSCCC(=O)N3CN(CN(C3)C(=O)CCSC[C@@H](C(N)=O)NC1=O)C(=O)CCSCCC(=O)N[C@@H](CC(C)(C)C)C(=O)N1CCC[C@H]1C(=O)N[C@@H](CCC(=O)O)C(=O)N[C@H](CCCCNC(=O)CCc1cn(CCOCCOCCOCCN(CCOCCOCCOCCC(=O)N[C@H]3CSCCC(=O)N4CN5CN(C4)C(=O)CCSC[C@H](NC(=O)[C@@H](CC(=O)O)NC(=O)[C@H](Cc4cccc6ccccc46)NC(=O)[C@@H]4CCCN4C3=O)C(=O)N[C@@H](CCSC)C(=O)N[C@@H](CCCCNC(=N)N)C(=O)N[C@@H](CC(=O)O)C(=O)N[C@@H](Cc3c[nH]c4ccccc34)C(=O)N[C@@H](CO)C(=O)N[C@@H]([C@@H](C)O)C(=O)N3CCC[C@H]3C(=O)N3C[C@H](O)C[C@H]3C(=O)N[C@@H](Cc3c[nH]c4ccccc34)C(=O)N[C@H](C(N)=O)CSCCC5=O)CCOCCOCCOCCn3cc(CCC(=O)NCCCC[C@H]4NC(=O)[C@H](CCC(=O)O)NC(=O)[C@@H]5CCCN5C(=O)[C@H](CC(C)(C)C)NC(=O)CCSCCC(=O)N5CN6CN(C5)C(=O)CCSC[C@H](NC(=O)[C@H](Cc5ccc(O)cc5)NC(=O)[C@@H]5CCCN5C4=O)C(=O)N[C@@H](Cc4ccccc4)C(=O)N[C@@H](C)C(=O)N[C@@H](CC(=O)O)C(=O)N4CCC[C@H]4C(=O)N[C@@H](Cc4ccc(O)cc4)C(=O)N[C@@H](CCCC)C(=O)N[C@H](C(N)=O)CSCCC6=O)nn3)nn1)C(=O)N1CCC[C@H]1C(=O)N[C@@H](Cc1ccc(O)cc1)C(=O)N2; tested on = Tumor necrosis factor receptor superfamily member 9/Nectin-4; test = reporter gene, agonist; test system = HT-1376 coculture with reporter cells; endpoint = EC50; value = 0.26 nM
SMILES = O=C(Nc1ccc(Br)cc1)Nc1ccc2c(c1)C=CCP(=O)(O)O2; tested on = CA9; endpoint = Ki; value = 36.8 nM
SMILES = CCCC[C@@H]1NC(=O)[C@H](Cc2ccc(O)cc2)NC(=O)[C@@H]2CCCN2C(=O)[C@H](CC(=O)O)NC(=O)[C@H](C)NC(=O)[C@H](Cc2ccccc2)NC(=O)[C@@H]2CSCCC(=O)N3CN(CN(C3)C(=O)CCSC[C@@H](C(=O)N[C@@H](C)C(N)=O)NC1=O)C(=O)CCSC[C@H](NC(C)=O)C(=O)N[C@@H](CC(C)(C)C)C(=O)N1CCC[C@H]1C(=O)N[C@@H](CCC(=O)O)C(=O)N[C@H](CCCCNC(=O)CCc1cn(CCOCCOCCOCCN(CCOCCOCCOCCn3cc(CCC(=O)NCCCC[C@H]4NC(=O)[C@H](CCC(=O)O)NC(=O)[C@@H]5CCCN5C(=O)[C@H](CC(C)(C)C)NC(=O)[C@@H](NC(C)=O)CSCCC(=O)N5CN6CN(C5)C(=O)CCSC[C@H](NC(=O)[C@H](Cc5ccc(O)cc5)NC(=O)[C@@H]5CCCN5C4=O)C(=O)N[C@@H](Cc4ccccc4)C(=O)N[C@@H](C)C(=O)N[C@@H](CC(=O)O)C(=O)N4CCC[C@H]4C(=O)N[C@@H](Cc4ccc(O)cc4)C(=O)N[C@@H](CCCC)C(=O)N[C@H](C(=O)N[C@@H](C)C(N)=O)CSCCC6=O)nn3)CCOCCOCCOCC(=O)NCCCNC(=O)Cn3cc(CCC(=O)NCCCNC(=O)COCCOCCOCCN(CCOCCOCCOCCn4cc(CCC(=O)NCCC(=O)N[C@H]5CSCCC(=O)N6CN7CN(C6)C(=O)CCSC[C@H](NC(=O)[C@@H](CC(=O)O)NC(=O)[C@H](Cc6cccc8ccccc68)NC(=O)[C@@H]6CCCN6C5=O)C(=O)N[C@@H](CCSC)C(=O)N[C@@H](CCCCNC(=N)N)C(=O)N[C@@H](CC(=O)O)C(=O)N[C@@H](Cc5c[nH]c6ccccc56)C(=O)N[C@@H](CO)C(=O)N[C@@H]([C@@H](C)O)C(=O)N5CCC[C@H]5C(=O)N5C[C@H](O)C[C@H]5C(=O)N[C@@H](Cc5c[nH]c6ccccc56)C(=O)N[C@H](C(N)=O)CSCCC7=O)nn4)CCOCCOCCOCCn4cc(CCC(=O)NCCC(=O)N[C@H]5CSCCC(=O)N6CN7CN(C6)C(=O)CCSC[C@H](NC(=O)[C@@H](CC(=O)O)NC(=O)[C@H](Cc6cccc8ccccc68)NC(=O)[C@@H]6CCCN6C5=O)C(=O)N[C@@H](CCSC)C(=O)N[C@@H](CCCCNC(=N)N)C(=O)N[C@@H](CC(=O)O)C(=O)N[C@@H](Cc5c[nH]c6ccccc56)C(=O)N[C@@H](CO)C(=O)N[C@@H]([C@@H](C)O)C(=O)N5CCC[C@H]5C(=O)N5C[C@H](O)C[C@H]5C(=O)N[C@@H](Cc5c[nH]c6ccccc56)C(=O)N[C@H](C(N)=O)CSCCC7=O)nn4)nn3)nn1)C(=O)N1CCC[C@H]1C(=O)N[C@@H](Cc1ccc(O)cc1)C(=O)N2; tested on = Tumor necrosis factor receptor superfamily member 9/Nectin-4; test = reporter gene, agonist; test system = HT-1376 coculture with reporter cells; endpoint = EC50; value = 0.05 nM
SMILES = COc1cc(Nc2ncc(F)c(Nc3ccc4c(n3)NC(=O)C(C)(C)O4)n2)cc(OC)c1OC; tested on = AVPR2 (Homo sapiens, UniProt P30518); endpoint = IC50; value = > 10000 nM
SMILES = NC(CC1(C(=O)O)CC2OC(CO)C(O)C(O)C2O1)C(=O)O (stereo not shown); tested on = Glutamate receptor ionotropic, kainate 1 del402-416; test = [3H]kainate displacement; test system = HEK-293T/17 membranes; endpoint = Ki; value = 59 nM
SMILES = O=C(Nc1ccc2c(c1)C=CCP(=O)(O)O2)c1ccc(I)cc1; tested on = CA9; endpoint = Ki; value = 18.7 nM
SMILES = COc1cc2c(Oc3ccc4[nH]c(C)cc4c3F)ccnc2cc1OCC1(N)CC1; test system = paediatric recurrent refractory sarcoma; setting = 12 mg; endpoint = grade 3 Vomiting; value = 0%
SMILES = C[C@H]1CN(c2n[nH]c3nc(N[C@H]4CC[C@H](NS(=O)(=O)CCC(F)(F)F)CC4)ncc23)CCO1; tested on = UBR4 (Homo sapiens, UniProt Q5T4S7); test = biochemical; endpoint = IC50; value = ≥ 20000 nM
SMILES = O=C(Nc1ccc2c(c1)C=CCP(=O)(O)O2)c1ccc(F)cc1; tested on = CA9; endpoint = Ki; value = 27.4 nM
SMILES = CC[C@H](C)[C@H](NC(=O)[C@H](Cc1ccccc1)NC(=O)[C@H](CCC(=O)O)NC(=O)[C@H](CCCNC(=N)N)NC(=O)[C@H](C)NC(=O)[C@H](C)NC(=O)[C@H](CCC(N)=O)NC(=O)[C@H](CCC(=O)O)NC(=O)[C@H](CCC(=O)O)NC(=O)[C@H](CC(C)C)NC(=O)[C@H](Cc1ccc(O)cc1)NC(=O)[C@H](CO)NC(=O)[C@H](CO)NC(=O)[C@@H](NC(=O)[C@H](CC(=O)O)NC(=O)[C@H](CO)NC(=O)[C@@H](NC(=O)[C@H](Cc1ccccc1)NC(=O)[C@@H](NC(=O)CNC(=O)[C@H](CCC(=O)O)NC(=O)[C@H](C)NC(=O)CCc1c[nH]cn1)[C@@H](C)O)[C@@H](C)O)C(C)C)C(=O)N[C@@H](C)C(=O)N[C@@H](Cc1c[nH]c2ccccc12)C(=O)N[C@@H](CC(C)C)C(=O)N[C@H](C(=O)N[C@@H](CCCNC(=N)N)C(=O)NCC(=O)N[C@@H](CCCNC(=N)N)C(=O)N[C@@H](CCCCNC(=O)COCCOCCNC(=O)COCCOCCNC(=O)CC[C@H](NC(=O)CCCCCCCCCCCCCCCCC(=O)O)C(=O)O)C(=O)NCC(=O)NCC(=O)N[C@@H](CO)C(=O)N[C@@H](CCCCNc1c(NCCCCCN(O)C(=O)CCC(=O)NCCCCCN(O)C(=O)CCC(=O)NCCCCCN(O)C(C)=O)c(=O)c1=O)C(=O)O)C(C)C [zirconium-89 labelled]; test system = rat, pancreas; setting = sc, 3 nmol/kg, 72 h, ex vivo; endpoint = tissue uptake; value = 0.18 %ID/g
SMILES = COc1cc(CCC[P+](c2ccccc2)(c2ccccc2)c2ccccc2)c(OC)c2c1OCO2.[I-]; tested on = OVCAR-4; test = SRB; endpoint = TGI; value = -4.79 log M

Some of these lines once more:
SMILES = CCCC[C@@H]1NC(=O)[C@H](Cc2ccc(O)cc2)NC(=O)[C@@H]2CCCN2C(=O)[C@H](CC(=O)O)NC(=O)[C@H](C)NC(=O)[C@H](Cc2ccccc2)NC(=O)[C@@H]2CSCCC(=O)N3CN(CN(C3)C(=O)CCSC[C@@H](C(=O)N[C@@H](C)C(N)=O)NC1=O)C(=O)CCSC[C@H](NC(C)=O)C(=O)N[C@@H](CC(C)(C)C)C(=O)N1CCC[C@H]1C(=O)N[C@@H](CCC(=O)O)C(=O)N[C@H](CCCCNC(=O)CCc1cn(CCOCCOCCOCCN(CCOCCOCCOCCn3cc(CCC(=O)NCCCC[C@H]4NC(=O)[C@H](CCC(=O)O)NC(=O)[C@@H]5CCCN5C(=O)[C@H](CC(C)(C)C)NC(=O)[C@@H](NC(C)=O)CSCCC(=O)N5CN6CN(C5)C(=O)CCSC[C@H](NC(=O)[C@H](Cc5ccc(O)cc5)NC(=O)[C@@H]5CCCN5C4=O)C(=O)N[C@@H](Cc4ccccc4)C(=O)N[C@@H](C)C(=O)N[C@@H](CC(=O)O)C(=O)N4CCC[C@H]4C(=O)N[C@@H](Cc4ccc(O)cc4)C(=O)N[C@@H](CCCC)C(=O)N[C@H](C(=O)N[C@@H](C)C(N)=O)CSCCC6=O)nn3)CCOCCOCCOCC(=O)NCCCNC(=O)Cn3cc(CCC(=O)NCCCNC(=O)COCCOCCOCCN(CCOCCOCCOCCn4cc(CCC(=O)NCCC(=O)N[C@H]5CSCCC(=O)N6CN7CN(C6)C(=O)CCSC[C@H](NC(=O)[C@@H](CC(=O)O)NC(=O)[C@H](Cc6cccc8ccccc68)NC(=O)[C@@H]6CCCN6C5=O)C(=O)N[C@@H](CCSC)C(=O)N[C@@H](CCCCNC(=N)N)C(=O)N[C@@H](CC(=O)O)C(=O)N[C@@H](Cc5c[nH]c6ccccc56)C(=O)N[C@@H](CO)C(=O)N[C@@H]([C@@H](C)O)C(=O)N5CCC[C@H]5C(=O)N5C[C@H](O)C[C@H]5C(=O)N[C@@H](Cc5c[nH]c6ccccc56)C(=O)N[C@H](C(N)=O)CSCCC7=O)nn4)CCOCCOCCOCCn4cc(CCC(=O)NCCC(=O)N[C@H]5CSCCC(=O)N6CN7CN(C6)C(=O)CCSC[C@H](NC(=O)[C@@H](CC(=O)O)NC(=O)[C@H](Cc6cccc8ccccc68)NC(=O)[C@@H]6CCCN6C5=O)C(=O)N[C@@H](CCSC)C(=O)N[C@@H](CCCCNC(=N)N)C(=O)N[C@@H](CC(=O)O)C(=O)N[C@@H](Cc5c[nH]c6ccccc56)C(=O)N[C@@H](CO)C(=O)N[C@@H]([C@@H](C)O)C(=O)N5CCC[C@H]5C(=O)N5C[C@H](O)C[C@H]5C(=O)N[C@@H](Cc5c[nH]c6ccccc56)C(=O)N[C@H](C(N)=O)CSCCC7=O)nn4)nn3)nn1)C(=O)N1CCC[C@H]1C(=O)N[C@@H](Cc1ccc(O)cc1)C(=O)N2; tested on = Tumor necrosis factor receptor superfamily member 9/Nectin-4; test = reporter gene, agonist; test system = HT-1376 coculture with reporter cells; endpoint = EC50; value = 0.05 nM
SMILES = COc1cc(CCC[P+](c2ccccc2)(c2ccccc2)c2ccccc2)c(OC)c2c1OCO2.[I-]; tested on = OVCAR-4; test = SRB; endpoint = TGI; value = -4.79 log M
